# Assay results from different studies.
# Protocols differ between the studies behind these lines. ± marks the error that the study gave.
SMILES,target or system,assay,system,conditions,scale,endpoint,value
Cc1ccc(C(=O)N(CCCN)[C@@H](c2oc3cc(Cl)ccc3c(=O)c2Cc2ccccc2)C(C)C)cc1,Toxoplasma gondii,parasite growth,"HFF, bradyzoite, glutamine-induced",,,EC50,4.05 µM
Cn1cc(-c2ccc(-c3cncc(Cl)c3N3CCC4(CCNC4=O)CC3)cc2)cn1,COLO 205,"gene expression, microarray, item: EMID1 mRNA",,"concentration not given, 6 h",reference: untreated cells,log2 fold change,-3.47
Clc1nc(NCc2ccco2)c2[nH]cnc2n1,iPSC-derived cardiomyocytes,"RNA-seq, item: PSMA3-AS1 chr14 exon ending 58285756",,unit not given,reference: DMSO minus compound,ΔPSI,0.266
CCn1cc(-c2cc(Cn3ccoc3=N)cc3c2CCN([C@@H](C)c2cc(OC)ccn2)C3=O)c(C(F)(F)F)n1,GCIY,"cell growth, inhibitor",,120 h,,EC50,0.857 µM
CC/C=C\C[C@H](O)/C=C/C=C\C/C=C\C=C\[C@@H](O)C/C=C\CCC(=O)O,HUVEC with GNAS siRNA knockdown,HTRF,,concentration not given,,cAMP level,decreased
CN(C)C(=O)c1cc2cnc(Nc3ccc(N4CCNCC4)cn3)nc2n1C1CCCC1,human neutrophils,,bEnd.3 endothelial cells,"1 to 10 µM, added: fMLF",,neutrophil adhesion,decreased
CC1(C)COc2ccc(F)cc2CN2c3nc4c(cnn4cc3OC[C@H]2C(F)F)C(=O)N1,Ba/F3 EML4-ALK v1,cell viability,,,,Emax,99.4%
O=c1[nH]nc(OCCCc2ccc(Cl)cc2)c(NCc2cccnc2)c1Br,HEK-293T,"RNA-seq GSEA, item: HALLMARK_E2F_TARGETS",,concentration not given,direction not given,normalized enrichment score,-1.42
Nc1cccc2c1C(=O)N(C1CCC(=O)NC1=O)C2=O (stereo not shown),bone marrow CD138+ myeloma cells,XTT,,"2 µM, mean of three patients",,viability,8%
Cc1cc(Nc2ncc(Cl)c(Nc3ccccc3S(=O)(=O)C(C)C)n2)c(OC(C)C)cc1C1CCNCC1,CLB-BAR,"phosphoproteomics LC-MS/MS, item: RBM4 phosphorylation",,"200 nM, 60 min",reference: untreated,log2 fold change,-2.13
Cl,human neutrophils,"anion exchange, substrate, trans-stimulated sulfate efflux",,"85 mM K+, glucuronate medium, added: nigericin 2 µM",,Km,22.4 mM
O=C(c1ccc(Nc2nccc(-c3cc4ccccc4s3)n2)cc1)N1CCC(N2CCCC2)CC1,Toxoplasma gondii,parasite growth,"HFF, bradyzoite, glutamine-induced",,,EC50,1.6 µM
COc1cnc2cccc(N3CCc4c(cc(Cn5ccnc5C)cc4-c4cn(C)nc4C(F)(F)F)C3=O)c2c1,GCIY,"cell growth, inhibitor",,120 h,,EC50,1.41 µM
O=C(/C=C/C=C/C=C/C1CCCCC1)NC1=C[C@@](O)(/C=C/C=C/C=C/C(=O)NC2=C(O)CCC2=O)[C@@H]2O[C@@H]2C1=O,SW1573,"cell growth, CellTiter-Glo",,78 h,,GI50,10 µM
CCCCCCCC(=O)Nc1ncc(Cc2cccc(OCc3cn(CCOC)nn3)c2)s1,PC-3M-luc,"cell viability, MTS",,10 µM,,inhibition,21.2 ± 13.8%
Nc1ccn([C@H]2CC[C@@H](CO)O2)c(=O)n1,HepG2,qPCR,,"20.0 µM, 10 days, 1",reference: untreated,mitochondrial DNA content,0.7 ± 0.2%
CC(C)(C)c1cc(O)ccc1O,HepG2,"high content imaging, item: DNA structure",,"24 h, distribution mode 2",,point of departure,138 µM
CCCCc1oc2ccccc2c1C(=O)c1cc(I)c(OCCN(CC)CC)c(I)c1,human embryonic stem cell aggregates,microarray,,"4 µM, 120 h, fold change above 1.5",,differentially expressed genes number,602
CC(C)(C)c1ccc(C(O)CCCN2CCC(C(O)(c3ccccc3)c3ccccc3)CC2)cc1 (stereo not shown),MCF-10A,CellTiter-Glo,,concentration not given,"reference: normalised, mean of replicates",viability,26.1%
CC(=O)c1nn(-c2ccc(C)cc2)/c(=N/N=C(\C)c2ccc(NC(=O)c3ccccc3)cc2)s1,MCF7,MTT,,1.25 µM,,cytotoxicity,94.7%
COc1cc(NC(C)CCCN)c2ncccc2c1 (stereo not shown),MYBPC3 mutant iPSC-derived cardiomyocytes,item: MyBP-C,,"concentration not given, fresh powder",,activity on retest,inactive
N#Cc1ccc(C[C@H](Nc2nnc(-c3ccc(Br)cc3)o2)C(=O)N2CCc3ccccc32)cc1,human neutrophils,"calcium mobilization, agonist",,,,EC50,4.3 ± 0.3 µM

# Repeated from above:
SMILES,target or system,assay,system,conditions,scale,endpoint,value
CCn1cc(-c2cc(Cn3ccoc3=N)cc3c2CCN([C@@H](C)c2cc(OC)ccn2)C3=O)c(C(F)(F)F)n1,GCIY,"cell growth, inhibitor",,120 h,,EC50,0.857 µM
CC/C=C\C[C@H](O)/C=C/C=C\C/C=C\C=C\[C@@H](O)C/C=C\CCC(=O)O,HUVEC with GNAS siRNA knockdown,HTRF,,concentration not given,,cAMP level,decreased
CN(C)C(=O)c1cc2cnc(Nc3ccc(N4CCNCC4)cn3)nc2n1C1CCCC1,human neutrophils,,bEnd.3 endothelial cells,"1 to 10 µM, added: fMLF",,neutrophil adhesion,decreased
